Experimental data of several laboratories.
Compare with care: the assays were run in different laboratories.
Method: steady-state kinetics
B1: enzyme (Rattus norvegicus, UniProt P06757); chain STAGKVIKCKAAVLWEPHKPFTIEDIEVAPPKAHEVRIKMVATGVCRSDDHAVSGSLFTPLPAVLGHEGAGIVESIGEGVTCVKPGDKVIPLFSPQCGKCRICKHPESNLCCQTKNLTQPKGALLDGTSRFSCRGKPIHHFISTSTFSQYTVVDDIAVAKIDAAAPLDKVCLIGCGFSTGYGSAVQVAKVTPGSTCAVFGLGGVGLSVVIGCKTAGAAKIIAVDINKDKFAKAKELGATDCINPQDYTKPIQEVLQEMTDGGVDFSFEVIGRLDTMTSALLSCHSACGVSVIVGVPPSAQSLSVNPMSLLLGRTWKGAIFGGFKSKDAVPKLVADFMAKKFPLEPLITHVLPFEKINEAFDLLRAGKSIRTVLTF
B2: cyc1 (Streptomyces coelicolor, UniProt Q9K499); chain MHAFPHGTTATPTAIAVPPSLRLPVIEAAFPRQLHPYWPKLQETTRTWLLEKRLMPADKVEEYADGLCYTDLMAGYYLGAPDEVLQAIADYSAWFFVWDDRHDRDIVHGRAGAWRRLRGLLHTALDSPGDHLHHEDTLVAGFADSVRRLYAFLPATWNARFARHFHTVIEAYDREFHNRTRGIVPGVEEYLELRRLTFAHWIWTDLLEPSSGCELPDAVRKHPAYRRAALLSQEFAAWYNDLCSLPKEIAGDEVHNLGISLITHHSLTLEEAIGEVRRRVEECITEFLAVERDALRFADELADGTVRGKELSGAVRANVGNMRNWFSSVYWFHHESGRYMVDSWDDRSTPPYVNNEAAGEK
B3: ASRGL1 (Homo sapiens, UniProt Q7L266); chain 1 MNPIVVVHGGGAGPISKDRKERVHQGMVRAATVGYGILREGGSAVDAVEGAVVALEDDPEFNAGCGSVLNTNGEVEMDASIMDGKDLSAGAVSAVQCIANPIKLARLVMEKTPHCFLTDQGAAQFAAAMGVPEIPGEKLVTERNKKRLEKEKHEKGAQKTDCQKNLG; chain 2 TVGAVALDCKGNVAYATSTGGIVNKMVGRVGDSPCLGAGGYADNDIGAVSTTGHGESILKVNLARLTLFHIEQGKTVEEAADLSLGYMKSRVKGLGGLIVVSKTGDWVAKWTSTSMPWAAAKDGKLHFGIDPDDTTITDLP
B4: Mgst1 unactivated (Rattus norvegicus, UniProt P08011); chain ADLKQLMDNEVLMAFTSYATIILAKMMFLSSATAFQRLTNKVFANPEDCAGFGKGENAKKFLRTDEKVERVRRAHLNDLENIVPFLGIGLLYSLSGPDLSTALIHFRIFVGARIYHTIAYLTPLPQPNRGLAFFVGYGVTLSMAYRLLRSRLYL
B5: FMO3 E308G (Homo sapiens, UniProt P31513); chain GKKVAIIGAGVSGLASIRSCLEEGLEPTCFEKSNDIGGLWKFSDHAEEGRASIYKSVFSNSSKEMMCFPDFPFPDDFPNFMHNSKIQEYIIAFAKEKNLLKYIQFKTFVSSVNKHPDFATTGQWDVTTERDGKKESAVFDAVMVCSGHHVYPNLPKESFPGLNHFKGKCFHSRDYKEPGVFNGKRVLVVGLGNSGCDIATELSRTAEQVMISSRSGSWVMSRVWDNGYPWDMLLVTRFGTFLKNNLPTAISDWLYVKQMNARFKHENYGLMPLNGVLRKEPVFNDELPASILCGIVSVKPNVKEFTGTSAIFEDGTIFEGIDCVIFATGYSFAYPFLDESIIKSRNNEIILFKGVFPPLLEKSTIAVIGFVQSLGAAIPTVDLQSRWAAQVIKGTCTLPSMEDMMNDINEKMEKKRKWFGKSETIQTDYIVYMDELSSFIGAKPNIPWLFLTDPKLAMEVYFGPCSPYQFRLVGPGQWPGARNAILTQWDRSLKPMQTRVVGRLQKPCFFFHWLKLFAIPILLIAVFLVLT
B6: At3g26430 (Arabidopsis thaliana, UniProt Q9LIN2); chain SPSCNFPAIFNFGDSNSDTGGLSASFGQAPYPNGQTFFHSPSGRFSDGRLIIDFIAEELGLPYLNAFLDSIGSNFSHGANFATAGSTVRPPNATIAQSGVSPISLDVQLVQFSDFITRSQLIRNRGGVFKKLLPKKEYFSQALYTFDIGQNDLTAGLKLNMTSDQIKAYIPDVHDQLSNVIRKVYSKGGRRFWIHNTAPLGCLPYVLDRFPVPASQIDNHGCAIPRNEIARYYNSELKRRVIELRKELSEAAFTYVDIYSIKLTLITQAKKLGFRYPLVACCGHGGKYNFNKLIKCGAKVMIKGKEIVLAKSCNDVSFRVSWDGIHFTETTNSWIFQQINDGAFSDPPLPVKSACTR
B7: protein E205A (Zea mays, UniProt A0A2H4PMI3); chain APFACVSRWLHTPSFATVSPQEVSGSSPAEVQNFVQGSWTASANWNWIVDPLNGDKFIKVAEVQGTEIKSFMESLSKCPKHGLHNPLKAPERYLMYGDISAKAAHMLGQPTVLDFFAKLIQRVSPKSYQQALAEVQVSQKFLENFCGDQVRFLARSFAVPGNHLGQRSNGYRWPYGPVAIITPFNFPLAIPLLQLMGALYMGNKPVLKVDSKVSIVMEQMIRLLHDCGLPAEDMDFINSDGAVMNKLLLEANPKMTLFTGSSRVAEKLAADLKGRVKLEDAGFDWKILGPDVQEVDYVAWVCDQDAYACSGQKCSAQSVLFMHKNWSSSGLLEKMKKLSERRKLEDLTIGPVLTVTTEAMIEHMNNLLKIRGSKVLFGGEPLANHSIPKIYGAMKPTAVFVPLEEILKSGNFELVTKEIFGPFQVVTEYSEDQLELVLEACERMNAHLTAAIVSNDPLFLQDVLGRSVNGTTYAGIRARTTGAPQNHWFGPAGDPRGAGIGTPEAIKLVWSCHREIIYDVGPVPESWALPSAT
B8: GTPBP3 E142K/R136E (Homo sapiens, UniProt Q969Y2); chain TRRSSGAPAPGSGATIFALSSGQGRCGIAVIRTSGPASGHALRILTAPRDLPLARHASLRLLSDPRSGEPLDRALVLWFPGPQSFTGEDCVEFHVHGGPAVVSGVLQALGSVPGLEPAEAGKFTRRAFANGKLNLTEVEGLADLIHAETEAQRRQALRQLDGELGHLCRGWAETLTKALAHVEAYIDFGEDDNLEEGVLEQADIEVRALQVALGAHLRDARRGQRLRSGVHVVVTGPPNAGKSSLVNLLSRKPVSIVSPEPGTTRDVLETPVDLAGFPVLLSDTAGLREGVGPVEQEGVRRARERLEQADLILAMLDASDLASPSSCNFLATVVASVGAQSPSDSSQRLLLVLNKSDLLSPEGPGPGPDLPPHLLLSCLTGEGLDGLLEALRKELAAVCGDPSTDPPLLTRARHQHHLQGCLDALGHYKQSKDLALAAEALRVARGHLTRLTGGGGTEEILDIIFQDFCVGK
Sequence of UniProt P42982 (whole entry, looked up): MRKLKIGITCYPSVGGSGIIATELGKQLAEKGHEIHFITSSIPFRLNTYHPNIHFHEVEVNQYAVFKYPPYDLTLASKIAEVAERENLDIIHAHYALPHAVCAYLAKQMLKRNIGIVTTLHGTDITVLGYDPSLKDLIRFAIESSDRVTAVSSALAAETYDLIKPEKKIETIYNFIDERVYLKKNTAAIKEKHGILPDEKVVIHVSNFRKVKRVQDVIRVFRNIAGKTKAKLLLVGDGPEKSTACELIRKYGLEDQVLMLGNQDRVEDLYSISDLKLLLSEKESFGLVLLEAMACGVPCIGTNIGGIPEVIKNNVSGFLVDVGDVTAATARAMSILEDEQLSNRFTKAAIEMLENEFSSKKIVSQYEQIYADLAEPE
Sequence of UniProt O81030 (whole entry, looked up): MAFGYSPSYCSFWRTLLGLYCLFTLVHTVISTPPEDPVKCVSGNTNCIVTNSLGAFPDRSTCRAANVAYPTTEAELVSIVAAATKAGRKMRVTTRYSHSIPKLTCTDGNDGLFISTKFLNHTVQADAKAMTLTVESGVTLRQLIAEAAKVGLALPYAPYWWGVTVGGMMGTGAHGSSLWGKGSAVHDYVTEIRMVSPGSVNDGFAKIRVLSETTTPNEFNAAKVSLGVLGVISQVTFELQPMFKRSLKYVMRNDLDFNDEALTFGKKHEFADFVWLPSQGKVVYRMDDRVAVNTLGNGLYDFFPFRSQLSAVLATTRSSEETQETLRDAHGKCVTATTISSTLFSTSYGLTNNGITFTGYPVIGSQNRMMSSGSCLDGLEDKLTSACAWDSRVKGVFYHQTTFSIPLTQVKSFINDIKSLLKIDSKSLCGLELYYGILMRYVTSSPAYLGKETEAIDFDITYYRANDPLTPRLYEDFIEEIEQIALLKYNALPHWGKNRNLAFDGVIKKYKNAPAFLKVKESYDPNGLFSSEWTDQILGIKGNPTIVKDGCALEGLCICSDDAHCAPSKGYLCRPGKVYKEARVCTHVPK
Sequence of UniProt P00433 (whole entry, looked up): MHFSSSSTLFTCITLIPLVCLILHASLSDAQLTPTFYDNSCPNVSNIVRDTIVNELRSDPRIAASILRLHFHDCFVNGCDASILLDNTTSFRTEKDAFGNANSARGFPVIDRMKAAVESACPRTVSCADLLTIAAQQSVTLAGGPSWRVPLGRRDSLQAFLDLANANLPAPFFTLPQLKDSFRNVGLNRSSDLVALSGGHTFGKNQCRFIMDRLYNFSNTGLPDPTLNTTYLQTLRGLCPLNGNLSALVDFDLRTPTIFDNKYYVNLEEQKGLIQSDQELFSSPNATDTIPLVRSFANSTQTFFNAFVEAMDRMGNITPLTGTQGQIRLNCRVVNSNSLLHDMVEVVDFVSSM
Sequence of UniProt P45370 (whole entry, looked up): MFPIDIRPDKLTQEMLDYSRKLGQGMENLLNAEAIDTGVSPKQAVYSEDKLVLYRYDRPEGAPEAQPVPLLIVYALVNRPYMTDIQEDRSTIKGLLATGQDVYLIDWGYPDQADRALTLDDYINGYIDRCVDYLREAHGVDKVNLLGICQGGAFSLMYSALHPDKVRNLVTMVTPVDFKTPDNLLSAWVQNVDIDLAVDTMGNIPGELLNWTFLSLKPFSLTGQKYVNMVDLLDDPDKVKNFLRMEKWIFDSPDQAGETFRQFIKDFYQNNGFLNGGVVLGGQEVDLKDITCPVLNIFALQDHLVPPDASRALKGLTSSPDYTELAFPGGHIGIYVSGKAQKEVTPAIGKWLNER
Sequence of UniProt Q8PWY1 (whole entry, looked up): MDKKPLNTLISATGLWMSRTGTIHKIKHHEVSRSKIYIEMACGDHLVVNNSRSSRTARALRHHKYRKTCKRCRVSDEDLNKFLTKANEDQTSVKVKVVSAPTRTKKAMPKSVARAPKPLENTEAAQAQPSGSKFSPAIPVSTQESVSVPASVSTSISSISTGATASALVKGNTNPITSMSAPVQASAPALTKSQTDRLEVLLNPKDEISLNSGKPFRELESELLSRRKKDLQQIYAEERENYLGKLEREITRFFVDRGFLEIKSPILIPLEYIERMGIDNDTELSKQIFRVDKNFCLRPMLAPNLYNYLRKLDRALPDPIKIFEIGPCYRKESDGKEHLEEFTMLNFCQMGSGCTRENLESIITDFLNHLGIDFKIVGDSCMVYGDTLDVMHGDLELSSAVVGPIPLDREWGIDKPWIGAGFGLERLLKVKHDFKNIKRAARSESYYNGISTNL
Sequence of UniProt Q9Y267 (whole entry, looked up): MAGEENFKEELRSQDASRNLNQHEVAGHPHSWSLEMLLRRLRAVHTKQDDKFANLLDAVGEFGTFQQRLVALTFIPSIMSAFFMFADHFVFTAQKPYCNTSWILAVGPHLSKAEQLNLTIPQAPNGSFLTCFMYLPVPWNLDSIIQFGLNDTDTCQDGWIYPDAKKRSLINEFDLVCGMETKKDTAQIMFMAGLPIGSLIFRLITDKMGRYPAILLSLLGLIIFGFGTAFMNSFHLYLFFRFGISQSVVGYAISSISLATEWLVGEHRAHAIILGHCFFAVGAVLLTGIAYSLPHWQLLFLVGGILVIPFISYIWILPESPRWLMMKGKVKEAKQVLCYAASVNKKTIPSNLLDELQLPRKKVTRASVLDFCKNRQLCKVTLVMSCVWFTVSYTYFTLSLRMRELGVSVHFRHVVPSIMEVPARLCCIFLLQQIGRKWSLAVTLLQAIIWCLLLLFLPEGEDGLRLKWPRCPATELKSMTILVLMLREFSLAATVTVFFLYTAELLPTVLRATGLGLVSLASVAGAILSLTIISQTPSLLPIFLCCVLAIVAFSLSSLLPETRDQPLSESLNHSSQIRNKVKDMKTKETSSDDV

| Substance | substrate | medium | pH | temperature | setting | together with | Km |
| --- | --- | --- | --- | --- | --- | --- | --- |
| B1 (enzyme) | CCC(O)CC |  | pH 7.3 | 37 °C |  |  | 4800 µM |
| RALBP1 (Homo sapiens, UniProt Q15311) | CNC(=O)c1cc(Oc2ccc(NC(=O)Nc3ccc(Cl)c(C(F)(F)F)c3)cc2)ccn1 |  | pH 7.4 | 37 °C |  |  | 10.4 µM |
| GulLO5 (Arabidopsis thaliana, UniProt O81030) | O=C1O[C@H]([C@@H](O)CO)[C@H](O)[C@@H]1O |  | pH 8 | 25 °C | apparent | cytochrome c 121 µM, FAD 100 µM | 33800 µM |
| B2 (cyc1) | CC(C)=CCC/C(C)=C/CC/C(C)=C/CO[P@@](=O)(O)OP(=O)(O)O |  | pH 6.5 | 30 °C |  | MgCl2 10 mM | 0.33 µM |
| B3 (ASRGL1) | C[C@H](NC(=O)C[C@H](N)C(=O)O)C(=O)O |  | pH 7.4 | 37 °C | NaCl 100 mM |  | 1000 µM |
| anthranilate synthase (Streptomyces venezuelae, UniProt O30589) | C=C(O[C@@H]1C=C(C(=O)O)C=C[C@H]1O)C(=O)O |  | pH 7.5 | 30 °C |  | glutamine saturating; MgCl2 12.5 mM | 8.2 µM |
| B4 (Mgst1 unactivated) | CC(=O)c1ccc(Cl)c([N+](=O)[O-])c1 |  | pH 6.5 | 5 °C | potassium phosphate 0.1 M, unactivated enzyme | GSH 5 mM | 77 µM |
| B5 (FMO3 E308G) | CN1CCC[C@H]1c1cccnc1 | HEK293 microsomes |  | 37 °C | not purified | NADPH regenerating system | 1700 µM |
| BshA (Bacillus subtilis, UniProt P42982) | CC(=O)N[C@H]1[C@@H](OP(=O)(O)OP(=O)(O)OC[C@H]2O[C@@H](n3ccc(=O)[nH]c3=O)[C@H](O)[C@@H]2O)O[C@H](CO)[C@@H](O)[C@@H]1O |  | pH 7.5 | 21 °C |  | malate 0–25 mM | 160 µM |
| SLC22A14 (Homo sapiens, UniProt Q9Y267) | Cc1cc2nc3c(=O)[nH]c(=O)nc-3n(C[C@H](O)[C@H](O)[C@H](O)CO)c2cc1C |  |  | 37 °C | not purified |  | 0.778 µM |
| B6 (At3g26430) | CC(=O)Oc1ccc([N+](=O)[O-])cc1 | E. coli soluble lysate | pH 7.5 | 30 °C | not purified |  | 4600 µM |
| enzyme (Corynebacterium glutamicum, UniProt Q8NT37) | C=C(C)CCO[P@@](=O)(O)OP(=O)(O)O |  | pH 7.6 | 37 °C |  |  | 13 µM |
| B7 (protein E205A) | O=CCCCC(=O)O |  | pH 7.5 | 30 °C | substrate inhibition | NAD+ 3.0 mM | 32 µM |
| protein (Allochromatium vinosum, UniProt P45370) | C[C@@H](O)CC(=O)SCCNC(=O)CCNC(=O)[C@H](O)C(C)(C)COP(=O)(O)OP(=O)(O)OC[C@H]1O[C@@H](n2cnc3c(N)ncnc32)[C@H](O)[C@@H]1OP(=O)(O)O |  | pH 7.8 | 30 °C |  |  | 110 µM |
| pylS (Methanosarcina mazei, UniProt Q8PWY1) | C[C@@H]1CC=N[C@H]1C(=O)NCCCC[C@H](N)C(=O)O |  | pH 7.2 | 37 °C | apparent |  | 31 µM |
| PRXC1A (Armoracia rusticana, UniProt P00433) | CCn1c(=NN=c2sc3cc(S(=O)(=O)O)ccc3n2CC)sc2cc(S(=O)(=O)O)ccc21 |  | pH 7 | 25 °C | apparent |  | 960 µM |
| B8 (GTPBP3 E142K/R136E) | Nc1nc2c(ncn2[C@@H]2O[C@H](COP(=O)(O)OP(=O)(O)OP(=O)(O)O)[C@@H](O)[C@H]2O)c(=O)[nH]1 |  | pH 8 | 37 °C | KCl 300 mM |  | 15.1 µM |
| α-amino ester hydrolase (Xanthomonas campestris, UniProt Q8P8K4) | CC1=C(C(=O)O)N2C(=O)[C@@H](NC(=O)[C@H](N)c3ccccc3)[C@H]2SC1 |  | pH 7 | 25 °C | phosphate 100 mM |  | 2200 µM |

Excerpt of the above:
| Substance | substrate | medium | pH | temperature | setting | together with | Km |
| --- | --- | --- | --- | --- | --- | --- | --- |
| pylS (Methanosarcina mazei, UniProt Q8PWY1) | C[C@@H]1CC=N[C@H]1C(=O)NCCCC[C@H](N)C(=O)O |  | pH 7.2 | 37 °C | apparent |  | 31 µM |
| B2 (cyc1) | CC(C)=CCC/C(C)=C/CC/C(C)=C/CO[P@@](=O)(O)OP(=O)(O)O |  | pH 6.5 | 30 °C |  | MgCl2 10 mM | 0.33 µM |
